Published values collected from several papers.
Values joined by “and” are separate records of one study, mostly repeats; a detail may differ. ± marks the error that the study gave.
Gria2/Glutamate receptor 3: Gria2/Glutamate receptor 3 (Rattus norvegicus, UniProt P19491+P19492)
PPO3: PPO3 (Agaricus bisporus, UniProt C7FF04)
USP14: Ubiquitin carboxyl-terminal hydrolase 14 (USP14, Homo sapiens, UniProt P54578)

CCCC[C@H](NC(=O)[C@H](CCC(N)=O)NC(=O)[C@H](CCC(=O)O)NC(=O)[C@@H]1CCCN1C(=O)[C@@H](NC(=O)[C@H](C)NC(=O)[C@H](CC(N)=O)NC(=O)[C@H](CC(=O)O)NC(=O)CNC(=O)[C@@H]1CCCN1C(=O)[C@H](Cc1ccc(O)cc1)NC(=O)[C@@H](NC(=O)[C@@H]1CCCN1C(=O)[C@H](CCC(=O)O)NC(=O)[C@H](CC(C)C)NC(=O)[C@@H]1CCCN1C(=O)[C@H](C)N)C(C)C)[C@@H](C)O)C(=O)N[C@@H](C)C(=O)N[C@@H](CCC(N)=O)C(=O)N[C@@H](Cc1ccc(O)cc1)C(=O)N[C@@H](C)C(=O)N[C@@H](CCCCNC(=O)c1ccc2c(c1)C(=O)OC21c2ccc(N(C)C)cc2Oc2cc(N(C)C)ccc21)C(=O)N[C@@H](CC(=O)O)C(=O)N[C@@H](CC(C)C)C(=O)N[C@@H](CCCNC(=N)N)C(=O)N[C@@H](CCCNC(=N)N)C(=O)N[C@@H](Cc1ccc(O)cc1)C(=O)N[C@H](C(=O)N[C@@H](CC(N)=O)C(=O)N[C@@H](CCCC)C(=O)N[C@@H](CC(C)C)C(=O)N[C@H](C(=O)N[C@@H](CCCNC(=N)N)C(=O)N1CCC[C@H]1C(=O)N[C@@H](CCCNC(=N)N)C(=O)N[C@@H](Cc1ccc(O)cc1)C(N)=O)[C@@H](C)O)[C@@H](C)CC  BRETmax (NPY4R (Homo sapiens, UniProt P50391, N285A); NanoBRET binding; Nluc-tagged receptor N285A, unit not given; net BRET ratio): 0.043 ± 0.0009
COC(=O)Cc1cc2c(cc1C(=O)c1ccccc1Br)OCO2  current amplitude (Gria2/Glutamate receptor 3; glutamate-evoked current, whole-cell patch clamp; HEK-293T; concentration not given, pH 7.4, holding potential -60 mV, added: 10 mM glutamate): 235 ± 22 pA
Cc1cc(=O)oc2cc(NC(=O)CCCCCCC(=O)NO)ccc12  binding stoichiometry (HDAC8 (Homo sapiens, UniProt Q9BY41); ITC; phosphate buffer; concentration not given, pH 7.5): 0.8
N#CN1CC[C@H](C(=O)Nc2nc3c(s2)CN(C(=O)Cn2cc(CNC(=O)CCCC[C@@H]4SC[C@@H]5NC(=O)N[C@@H]54)nn2)CC3)C1  iBAQ abundance (UCHL3 (Homo sapiens, UniProt P15374); probe binding, affinity probe, neutravidin pull-down LC-MS/MS; HEK293T, cell lysate; 5 µM, 1 h, mean of three replicates, unit not given; higher = more pulled down): 1.51e+07
Oc1cc(O)c2cc(O[C@@H]3OC[C@H](O)[C@H](O)[C@H]3O)c(-c3ccc(O)c(O)c3)[o+]c2c1  binding entropy (PPO3; fluorescence quenching; concentration not given): -174 ± 0.78 J/(mol·K)
O=C1c2sc(-c3ccc(N4CCC(F)C4)nc3F)nc2CCN1c1cccnc1 (stereo not shown)  specific binding (TAR DNA-binding protein 43, aggregated (TARDBP, Homo sapiens, UniProt Q13148); radioligand binding; human, FTLD-TDP type B sarkosyl-insoluble extract; 13.55 nM): 0.996 nM and 0.711 nM
Nc1ncc2c(n1)-c1c([nH]c3ccc(C4=CCOCC4)cc13)CCC2  remaining binding (Tyrosine-protein kinase ABL1, non-phosphorylated (ABL1, Homo sapiens, UniProt P00519, F317L); binding, competition with immobilised ligand; 1 µM): 74%
CC(=O)N1CCN(c2nc(N)c3c(N)nc4c(c3c2C#N)CC(=O)N4C)CC1  inhibition (USP14; enzyme activity, inhibitor; 17 µM): 3%
C#CCOC(=O)[C@@]1(C)C=C(C(=O)Nc2cccc(C(=O)Nc3ccc(C)c(Nc4nccc(-c5cccnc5)n4)c3)c2)C(=O)CC1  remaining activity (MAPK9 (Homo sapiens, UniProt P45984); enzyme activity, inhibitor; 0.5487 µM, unit not given; relative to: vehicle): 0.274
CC(C)Oc1cc(Cl)ccc1CNc1cc(-c2ccccc2)nc2ncnn12  cAMP luminescence (GPR3 (Homo sapiens, UniProt P46089, L128A); cAMP level, cAMP GloSensor; 1 nM; higher = more cAMP): 17500 a.u. and 30200 a.u. and 31500 a.u. and 16900 a.u.
COC(=O)Cc1cc2c(cc1C(=O)c1ccccc1Cl)OCO2  current amplitude after recovery (Gria2/Glutamate receptor 3; glutamate-evoked current, whole-cell patch clamp; HEK-293T; concentration not given, glutamate alone after washout, added: glutamate): 496 ± 35 pA
CC[C@H](C)[C@@H](C(=O)N[C@@H](CC(C)C)C(=O)N[C@@H](CO)C(=O)N[C@@H](CO)C(=O)N[C@H](C(=O)N[C@@H](CC(N)=O)C(=O)N[C@H](C(=O)NCC(=O)N[C@@H](CO)C(=O)N[C@@H](CC(N)=O)C(=O)N[C@H](C(=O)N1CCC[C@H]1C(N)=O)[C@@H](C)O)C(C)C)[C@@H](C)O)N(C)C(=O)[C@H](C)NC(=O)CN(C)C(=O)[C@H](Cc1ccccc1)NC(=O)[C@H](CC(N)=O)NC(=O)[C@H](CC(N)=O)NC(=O)[C@H](CO)NC(=O)[C@H](CO)NC(=O)[C@H](CCCNC(=N)N)NC(=O)[C@H](Cc1c[nH]cn1)NC(=O)[C@H](CC(C)C)NC(=O)[C@H](Cc1ccccc1)NC(=O)[C@H](CCC(=O)O)NC(=O)[C@H](C)NC(=O)[C@H](CC(C)C)NC(=O)[C@H](CCCNC(=N)N)NC(=O)[C@H](CCC(N)=O)NC(=O)[C@@H](NC(=O)[C@H](C)NC(=O)[C@@H]1CSSC[C@H](NC(=O)[C@H](CCCNC(=N)N)NC(=O)CC[C@H](NC(=O)CCCCCCCCCCCCCCCCCCC(=O)O)C(=O)O)C(=O)N[C@@H](CC(N)=O)C(=O)N[C@@H]([C@@H](C)O)C(=O)N[C@@H](C)C(=O)N[C@@H]([C@@H](C)O)C(=O)N1)[C@@H](C)O  potency increase (Calcitonin receptor (CALCR, Homo sapiens, UniProt P30988); cAMP accumulation, agonist; COS-7 expressing CTR; relative to: over native Tyr37 analogue): ~7 fold
CC(=O)C12NC(C)(C)CC1(C)C(=O)C1=C2c2c(c3c4n2C(C)(C)CC2=C4C4(CC(C)(C)NC(C)(C4)C2=O)CC3(C)C)C(=O)C(C)(C)N1 (single isomer, unassigned; (+))  activation (Neuronal acetylcholine receptor; alpha3/beta4 (Homo sapiens, UniProt P30926+P32297); ion current, agonist, whole-cell patch clamp; HEK293T; 10 µM): 4.94 ± 0.03%
CCCCCCCCCCCCCCCC(=O)OCC(CSC[C@H](N)C(=O)N[C@@H](CO)C(=O)N[C@@H](CCCCN)C(=O)N[C@@H](CCCCN)C(=O)N[C@@H](CCCCN)C(=O)N[C@@H](CCCCN)C(=O)NCCCCCC(=O)N[C@@H](CCCCN)C(=O)N[C@@H](CC(C)C)C(=O)N[C@H](C(=O)N[C@@H](Cc1ccccc1)C(=O)N[C@@H](Cc1ccccc1)C(=O)N[C@@H](Cc1ccc2ccccc2c1)C(=O)O)C(C)C)OC(=O)CCCCCCCCCCCCCCC (stereo partly shown)  fibril diameter (Amyloid-beta precursor protein, fibrillar amyloid-beta (APP, Homo sapiens, UniProt P05067); TEM; 2.0 eq, 3 h, fibril 2, added: APP 20 µM): 44.8 nm
O=C(O)Cc1cc2c(cc1C(=O)c1cccc(I)c1)OCO2  deactivation time constant (Gria2/Glutamate receptor 3; whole-cell patch clamp; HEK-293T; concentration not given, added: glutamate): 3.7 ± 0.2 ms
NC(CNCCC=C(c1ccccc1)c1ccccc1)C(=O)O (racemic)  remaining signal (SLC6A9 (Homo sapiens, UniProt P48067); cell-free assay; 10 µM): 39%
C[Si](C)(C)C[C@@H](CN)CC(=O)O  inhibition (P2X receptor, rabbit; binding, radioligand binding; 75 µM, added: [3H]alpha,beta-methylene-ATP): -16%
O=C(NC1(O)C(=O)c2ccccc2C1=O)c1ccc(C(F)(F)F)cc1  inhibition (USP14; enzyme activity, inhibitor; 17 µM): 24%
C=CC(=O)N1CCCC(n2c(=O)c3ncccc3n(Cc3ccc(Oc4ccccc4)cc3)c2=O)C1 (stereo not shown)  melting temperature shift (USP14; thermal proteome profiling; cell proteome; unit not given; relative to: vehicle): -4.17
O=c1[nH]c(=S)c2c(n1N1CCOCC1)CCC2  inhibition (USP14; enzyme activity, inhibitor; 17 µM): 9%
N#Cc1ccc(-c2cc(CN3c4ccccc4C=Cc4ccccc43)on2)cc1  apparent Vmax (PPO3; enzyme activity, inhibitor; concentration not given): 31.2 µmol/min
C=CC(=O)N1CC2(CCN(c3nc(OC4CCN(CCCOC)CC4)nc4c(OCC(F)(F)F)c(-c5c(C)ccc6[nH]ncc56)c(C5CC5)cc34)CC2)C1  dissociation rate constant koff (GTPase KRas, GDP-bound (KRAS, Homo sapiens, UniProt P01116, Q61R); SPR): 0.0294 ± 0.0014 s⁻¹
COC(=O)CN1CCCc2cc3cc(C(=O)NC(Cc4ccc(C)cc4)C(=O)NCC=CS(=O)(=O)c4ccccc4)c(=O)oc3cc21 (stereo not shown)  kinact/Ki (Cathepsin S (CTSS, Homo sapiens, UniProt P25774); inhibitor; added: Z-Phe-Arg-AMC): 527 M⁻¹ s⁻¹
Cc1ncsc1-c1ccc(CNC(=O)[C@@H]2C[C@@H](O)CN2C(=O)[C@@H](NC(=O)C2(F)CC2)C(C)(C)C)c(OCCC2CN(c3nc(NCC(C)(C)C4(O)CCOC4)nc(N4CCC[C@H]4Cn4ccnn4)n3)C2)c1 (stereo partly shown)  ternary complex formation (VHL/BRD9, with Elongin B/C (Homo sapiens, UniProt P40337+Q9H8M2); native mass spectrometry; 5 µM, added: BRD9 and VCB at 5 µM; relative to: unbound BRD9): 0%
O=C1Nc2ccccc2/C1=N/N=C1\C(=O)Nc2ccccc21  inhibition (USP14; enzyme activity, inhibitor; 17 µM): 63%
CCCCCCCO[C@H]1CO[C@H](CO)[C@@H](O)[C@H](O)[C@@H]1O  -TΔS (Type 1 fimbrin D-mannose specific adhesin, lectin domain (fimH, Escherichia coli K-12, UniProt P08191); binding, isothermal titration calorimetry; 25 °C, individual direct titrations): 2.72 kcal/mol and 3.01 kcal/mol
O=c1c(=NO)c(=O)c2ccccc12  inhibition (USP14; enzyme activity, inhibitor; 17 µM): 84%
COC(=O)[C@@]1(C)C=C(C(=O)Nc2cccc(C(=O)Nc3ccc(Nc4nccc(-c5cccnc5)n4)c(C)c3)c2)C(=O)CC1  remaining activity (MAPK8 (Homo sapiens, UniProt P45983); enzyme activity, inhibitor; 0.0007527 µM, 18 h, unit not given, added: GSH 10 mM pre-incubation; relative to: vehicle): 0.982
